Measured values gathered from unrelated publications.
Compare with care: the assays were run in different laboratories. ± marks the error that the study gave.
Sequence of UniProt P13569 (whole entry, looked up): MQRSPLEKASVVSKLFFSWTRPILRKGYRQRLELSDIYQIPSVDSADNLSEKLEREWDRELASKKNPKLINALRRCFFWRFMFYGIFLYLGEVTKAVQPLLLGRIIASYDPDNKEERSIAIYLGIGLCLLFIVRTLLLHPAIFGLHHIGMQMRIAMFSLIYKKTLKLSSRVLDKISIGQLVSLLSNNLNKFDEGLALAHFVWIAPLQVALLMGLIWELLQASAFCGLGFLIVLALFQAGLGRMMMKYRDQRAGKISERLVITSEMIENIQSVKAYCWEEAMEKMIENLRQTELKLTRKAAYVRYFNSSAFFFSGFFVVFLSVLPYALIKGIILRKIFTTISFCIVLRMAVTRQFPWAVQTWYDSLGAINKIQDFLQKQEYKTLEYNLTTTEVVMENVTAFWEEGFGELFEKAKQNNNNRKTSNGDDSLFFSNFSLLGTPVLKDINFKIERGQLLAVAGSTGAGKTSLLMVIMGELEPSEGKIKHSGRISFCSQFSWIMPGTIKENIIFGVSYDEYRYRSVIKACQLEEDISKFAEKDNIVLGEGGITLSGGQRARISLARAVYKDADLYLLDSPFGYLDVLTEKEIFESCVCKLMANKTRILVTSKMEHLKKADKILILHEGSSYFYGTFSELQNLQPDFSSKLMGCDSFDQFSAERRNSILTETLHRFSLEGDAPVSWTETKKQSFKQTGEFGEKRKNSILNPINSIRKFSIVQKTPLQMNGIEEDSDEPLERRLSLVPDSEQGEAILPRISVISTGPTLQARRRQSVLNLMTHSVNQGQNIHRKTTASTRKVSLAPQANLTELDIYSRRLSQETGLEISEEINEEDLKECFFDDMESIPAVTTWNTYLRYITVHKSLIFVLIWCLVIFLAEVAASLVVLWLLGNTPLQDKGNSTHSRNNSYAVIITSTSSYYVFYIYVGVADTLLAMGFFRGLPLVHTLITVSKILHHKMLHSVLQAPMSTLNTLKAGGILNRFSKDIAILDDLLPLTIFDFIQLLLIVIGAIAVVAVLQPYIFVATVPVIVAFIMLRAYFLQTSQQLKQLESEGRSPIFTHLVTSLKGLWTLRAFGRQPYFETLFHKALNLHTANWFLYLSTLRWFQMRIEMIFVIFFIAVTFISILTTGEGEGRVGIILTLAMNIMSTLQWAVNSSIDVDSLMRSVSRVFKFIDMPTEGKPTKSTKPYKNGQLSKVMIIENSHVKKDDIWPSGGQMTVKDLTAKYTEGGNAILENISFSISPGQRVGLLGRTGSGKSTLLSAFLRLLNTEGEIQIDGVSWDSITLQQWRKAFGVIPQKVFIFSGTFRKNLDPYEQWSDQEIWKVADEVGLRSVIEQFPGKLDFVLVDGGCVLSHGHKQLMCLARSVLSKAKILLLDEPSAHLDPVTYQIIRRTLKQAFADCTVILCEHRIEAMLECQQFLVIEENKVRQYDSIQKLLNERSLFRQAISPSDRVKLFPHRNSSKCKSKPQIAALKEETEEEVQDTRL

The tissue uptake of `CCCC[C@H](NC(=O)CNC(=O)CNC(=O)c1ccc(NN)nc1)C(=O)N[C@H]1CC(=O)NCCCC[C@@H](C(N)=O)NC(=O)[C@H](Cc2c[nH]c3ccccc23)NC(=O)[C@H](CCCNC(=N)N)NC(=O)[C@@H](Cc2ccccc2)NC(=O)[C@H](Cc2c[nH]cn2)NC1=O` [technetium-99m labelled] is reported as 0.51 ± 0.15 %ID (C57 mouse, B16/F1 melanoma, intestines; 2 h, added: L-lysine 12 mg).
`CCCC[C@H](NC(=O)COCCOCCNC(=O)c1ccc(NN)nc1)C(=O)N[C@H]1CC(=O)NCCCC[C@@H](C(N)=O)NC(=O)[C@H](Cc2c[nH]c3ccccc23)NC(=O)[C@H](CCCNC(=N)N)NC(=O)[C@@H](Cc2ccccc2)NC(=O)[C@H](Cc2c[nH]cn2)NC1=O` [technetium-99m labelled] gave a tissue uptake of 0.11 ± 0.08 %ID/g (C57 mouse, female, B16/F1 melanoma, spleen; intravenous, 0.037 MBq, 2 h).
With `CSCC[C@H](NC(=O)[C@H](CC(C)C)NC(=O)[C@H](Cc1c[nH]cn1)NC(=O)CNC(=O)[C@@H](NC(=O)[C@H](C)NC(=O)[C@H](Cc1c[nH]c2ccccc12)NC(=O)[C@H](CCC(N)=O)NC(=O)CCCCCNC(=O)CNC(=O)CNC(=O)CNC(=O)CSC(C)=O)C(C)C)C(N)=O` [technetium-99m labelled] the tissue uptake was 1 ± 0.22 %ID/g (healthy Swiss mouse, large intestine, contents removed; intravenous, 18.5 MBq, 30 min).
The tissue uptake of `N=C(N)NCCC[C@@H]1NC(=O)[C@H](CCCCNC(=O)CCOCCOCCOCCOCCNC(=O)CC[C@H](NC(=O)CCOCCOCCOCCOCCNC(=O)CC[C@H](NC(=O)CN2CCN(CC(=O)O)CCN(CC(=O)O)CCN(CC(=O)O)CC2)C(=O)NCCOCCOCCOCCOCCC(=O)N[C@@H](CCC(=O)NCCOCCOCCOCCOCCC(=O)NCCCC[C@@H]2NC(=O)[C@@H](Cc3ccccc3)NC(=O)[C@H](CC(=O)O)NC(=O)CNC(=O)[C@H](CCCNC(=N)N)NC2=O)C(=O)NCCOCCOCCOCCOCCC(=O)NCCCC[C@@H]2NC(=O)[C@@H](Cc3ccccc3)NC(=O)[C@H](CC(=O)O)NC(=O)CNC(=O)[C@H](CCCNC(=N)N)NC2=O)C(=O)NCCOCCOCCOCCOCCC(=O)NCCCC[C@@H]2NC(=O)[C@@H](Cc3ccccc3)NC(=O)[C@H](CC(=O)O)NC(=O)CNC(=O)[C@H](CCCNC(=N)N)NC2=O)NC(=O)[C@@H](Cc2ccccc2)NC(=O)[C@H](CC(=O)O)NC(=O)CNC1=O` [indium-111 labelled] is reported as 0.08 ± 0.01 %ID/g (female athymic nude mice, brain; intravenous, 3 µCi, 24 h, U-87 MG glioma xenograft).
`CCCC[C@H](NC(=O)CCCCCCCNC(=O)c1ccc(NN)nc1)C(=O)N[C@H]1CC(=O)NCCCC[C@@H](C(N)=O)NC(=O)[C@H](Cc2c[nH]c3ccccc23)NC(=O)[C@H](CCCNC(=N)N)NC(=O)[C@@H](Cc2ccccc2)NC(=O)[C@H](Cc2c[nH]cn2)NC1=O` [technetium-99m labelled] has a tissue uptake of 0.31 ± 0.1 %ID/g (C57 mouse, B16/F1 melanoma, pancreas; 2 h, added: NDP-MSH 10 µg (6.07 nmol) co-injected).
With `C[C@H](NC(=O)[C@H](CCC(N)=O)NC(=O)[C@H](C)NC(=O)[C@H](CCCCN)NC(=O)[C@H](CCC(N)=O)NC(=O)[C@H](C)NC(=O)[C@H](CCCCN)NC(=O)[C@H](CCC(N)=O)NC(=O)[C@H](C)NC(=O)[C@H](CCC(N)=O)NC(=O)[C@H](CCCCN)NC(=O)[C@H](C)NC(=O)[C@H](CCC(N)=O)NC(=O)[C@H](CCCCN)NC(=O)[C@H](C)NC(=O)[C@H](CCC(N)=O)NC(=O)[C@H](C)NC(=O)[C@H](CCCCN)NC(=O)[C@H](CCC(N)=O)NC(=O)[C@H](C)NC(=O)[C@H](CCCCN)NC(=O)[C@H](CO)NC(=O)[C@H](Cc1ccc(O)cc1)NC(=O)CNC(=O)CNC(=O)CN)C(=O)N[C@@H](CCCCN)C(=O)N[C@@H](CCC(N)=O)C(=O)N[C@@H](C)C(=O)N[C@@H](CCCCN)C(=O)N[C@@H](CCC(N)=O)C(=O)O` the Rmax was 71.5 RU (binding, SPR Langmuir fit; rVλ6Wil fibrils; 300 nM, pH 7.4).
`N=C(N)NCCC[C@@H]1NC(=O)[C@H](CC(=O)NC23CNCCNCC(N)(CNCCNC2)CNCCNC3)NC(=O)[C@@H](Cc2ccccc2)NC(=O)[C@H](CC(=O)O)NC(=O)CNC1=O` [copper-64 labelled] has a tissue uptake of 0.37 ± 0.13 %ID/g (Nu/Nu mouse, male, tumour-bearing, heart; intravenous, 10 µCi, 2 h).
`N=C(N)NCCC[C@@H]1NC(=O)[C@H](CCCCNC(=O)CC[C@H](NC(=O)CCOCCOCCOCCOCCNC(=O)CN2CCN(CC(=O)O)CCN(CC(=O)O)CCN(CC(=O)O)CC2)C(=O)NCCCC[C@@H]2NC(=O)[C@@H](Cc3ccccc3)NC(=O)[C@H](CC(=O)O)NC(=O)CNC(=O)[C@H](CCCNC(=N)N)NC2=O)NC(=O)[C@@H](Cc2ccccc2)NC(=O)[C@H](CC(=O)O)NC(=O)CNC1=O` [indium-111 labelled] has a tissue uptake of 0.33 ± 0.04 %ID/g (female athymic nude mice, lungs; intravenous, 3 µCi, 72 h, U-87 MG glioma xenograft).
The tissue uptake of `CSCC[C@H](NC(=O)[C@H](CC(C)C)NC(=O)[C@H](Cc1c[nH]cn1)NC(=O)CNC(=O)[C@@H](NC(=O)[C@H](C)NC(=O)[C@H](Cc1c[nH]c2ccccc12)NC(=O)[C@H](CCC(N)=O)NC(=O)CCCCNC(=O)CSCCSCCP(CO)CO)C(C)C)C(N)=O` [technetium-99m labelled] is reported as 0.67 %ID/g (female CF-1 mouse, whole blood; intravenous, 1 h).
`C[C@H](NC(=O)[C@H](CCC(N)=O)NC(=O)[C@H](CCCCN)NC(=O)[C@H](C)NC(=O)[C@@H]1CCCN1C(=O)[C@H](C)NC(=O)[C@H](CCCCN)NC(=O)[C@H](CCC(N)=O)NC(=O)[C@H](C)NC(=O)[C@H](CCCCN)NC(=O)[C@H](CCC(N)=O)NC(=O)[C@@H]1CCCN1C(=O)[C@H](CCC(N)=O)NC(=O)[C@H](CCCCN)NC(=O)[C@H](C)NC(=O)[C@H](CCC(N)=O)NC(=O)[C@H](CCCCN)NC(=O)[C@H](C)NC(=O)[C@@H]1CCCN1C(=O)[C@H](C)NC(=O)[C@H](CCCCN)NC(=O)[C@H](CCC(N)=O)NC(=O)[C@H](C)NC(=O)[C@H](CCCCN)NC(=O)[C@H](CO)NC(=O)[C@H](Cc1ccc(O)cc1)NC(=O)CNC(=O)CNC(=O)CN)C(=O)N[C@@H](CCCCN)C(=O)N[C@@H](CCC(N)=O)C(=O)O` has a ka1 of 120000 M⁻¹ s⁻¹ (binding, SPR two-state model; rVλ6Wil fibrils; 300 nM, pH 7.4).
With `CC(C)C[C@H](NC(=O)[C@H](Cc1ccc(O)cc1)NC(=O)[C@@H](CCCNC(=N)N)NC(=O)[C@@H](CO)NC(=O)[C@H](Cc1ccccc1)NC(=O)[C@H](CC1CCCCC1)NC(=O)[C@H](CC(=O)O)NC(=O)CCC(C(=O)O)N1CCCN2CCN(CCCN(CC(=O)O)CC2)CC1)C(=O)N[C@@H](Cc1c[nH]c2ccccc12)C(=O)N[C@@H](CO)C(=O)O` (stereo partly shown) [copper-64 labelled] the tissue uptake was 0.9 ± 0.1 %ID/g (female NMRI nude mice, bone; 1 h p.i.).
`N=C(N)NCCC[C@@H]1NC(=O)[C@H](CCCCNC(=O)CC[C@H](NC(=O)CCOCCOCCOCCOCCNC(=O)CC[C@H](NC(=O)CN2CCN(CC(=O)O)CCN(CC(=O)O)CCN(CC(=O)O)CC2)C(=O)NCCOCCOCCOCCOCCC(=O)N[C@@H](CCC(=O)NCCCC[C@@H]2NC(=O)[C@@H](Cc3ccccc3)NC(=O)[C@H](CC(=O)O)NC(=O)CNC(=O)[C@H](CCCNC(=N)N)NC2=O)C(=O)NCCCC[C@@H]2NC(=O)[C@@H](Cc3ccccc3)NC(=O)[C@H](CC(=O)O)NC(=O)CNC(=O)[C@H](CCCNC(=N)N)NC2=O)C(=O)NCCCC[C@@H]2NC(=O)[C@@H](Cc3ccccc3)NC(=O)[C@H](CC(=O)O)NC(=O)CNC(=O)[C@H](CCCNC(=N)N)NC2=O)NC(=O)[C@@H](Cc2ccccc2)NC(=O)[C@H](CC(=O)O)NC(=O)CNC1=O` [indium-111 labelled] gave a tissue uptake of 1.93 ± 0.77 %ID/g (female athymic nude mice, lungs; intravenous, 3 µCi, 4 h, U-87 MG glioma xenograft).
`N=C(N)NCCC[C@@H]1NC(=O)[C@H](CCCCNC(=O)CNC(=O)CNC(=O)CNC(=O)CC[C@H](NC(=O)c2ccc(NN=Cc3ccccc3S(=O)(=O)O)nc2)C(=O)NCC(=O)NCC(=O)NCC(=O)NCCCC[C@@H]2NC(=O)[C@@H](Cc3ccccc3)NC(=O)[C@H](CC(=O)O)NC(=O)CNC(=O)[C@H](CCCNC(=N)N)NC2=O)NC(=O)[C@@H](Cc2ccccc2)NC(=O)[C@H](CC(=O)O)NC(=O)CNC1=O` [technetium-99m labelled] has a tissue uptake of 13.4 ± 0.98 %ID/g (athymic nu/nu mouse, female, U-87 MG glioma xenograft, tumour; intravenous, 2 µCi, 30 min).
Under “mean fluorescence intensity”, `C=Cc1c(C)c2cc3nc(c4c5[nH]c(cc6nc(cc1[nH]2)C(C)=C6CC)c(C)c5C(=O)C4)[C@@H](CCC(=O)NCC(=O)N1CCC[C@H]1C(=O)N[C@@H](CC(C)C)C(=O)NCC(=O)N[C@@H](Cc1ccccc1)C(=O)N[C@@H](CCCNC(=N)N)C(=O)N[C@H](C(=O)NCC(=O)N[C@@H](CCCCN)C(N)=O)C(C)C)[C@@H]3C` is recorded as 38 ± 11 times (OA patient chondrocytes; flow cytometry; 1 µM, 24 h; relative to: untreated).
`CN[C@](C)(C[18F])C(=O)O` has a tracer uptake of 2.8 %ID/g (MDA-MB-468 tumour model; host not given, heart; 2 h, tumour-bearing).
For `CC(C)(C)c1cc(C(C)(C)C)c(-n2cc(-c3cnc4ccccc4c3O)nn2)cc1O`, EC50 read “inactive” (Cystic fibrosis transmembrane conductance regulator (CFTR, Homo sapiens, UniProt P13569); short-circuit current, potentiator; CFBE41o- wild type; added: forskolin 100 nM).

A few entries again:
Under “mean fluorescence intensity”, `C=Cc1c(C)c2cc3nc(c4c5[nH]c(cc6nc(cc1[nH]2)C(C)=C6CC)c(C)c5C(=O)C4)[C@@H](CCC(=O)NCC(=O)N1CCC[C@H]1C(=O)N[C@@H](CC(C)C)C(=O)NCC(=O)N[C@@H](Cc1ccccc1)C(=O)N[C@@H](CCCNC(=N)N)C(=O)N[C@H](C(=O)NCC(=O)N[C@@H](CCCCN)C(N)=O)C(C)C)[C@@H]3C` is recorded as 38 ± 11 times (OA patient chondrocytes; flow cytometry; 1 µM, 24 h; relative to: untreated).
The tissue uptake of `N=C(N)NCCC[C@@H]1NC(=O)[C@H](CCCCNC(=O)CCOCCOCCOCCOCCNC(=O)CC[C@H](NC(=O)CCOCCOCCOCCOCCNC(=O)CC[C@H](NC(=O)CN2CCN(CC(=O)O)CCN(CC(=O)O)CCN(CC(=O)O)CC2)C(=O)NCCOCCOCCOCCOCCC(=O)N[C@@H](CCC(=O)NCCOCCOCCOCCOCCC(=O)NCCCC[C@@H]2NC(=O)[C@@H](Cc3ccccc3)NC(=O)[C@H](CC(=O)O)NC(=O)CNC(=O)[C@H](CCCNC(=N)N)NC2=O)C(=O)NCCOCCOCCOCCOCCC(=O)NCCCC[C@@H]2NC(=O)[C@@H](Cc3ccccc3)NC(=O)[C@H](CC(=O)O)NC(=O)CNC(=O)[C@H](CCCNC(=N)N)NC2=O)C(=O)NCCOCCOCCOCCOCCC(=O)NCCCC[C@@H]2NC(=O)[C@@H](Cc3ccccc3)NC(=O)[C@H](CC(=O)O)NC(=O)CNC(=O)[C@H](CCCNC(=N)N)NC2=O)NC(=O)[C@@H](Cc2ccccc2)NC(=O)[C@H](CC(=O)O)NC(=O)CNC1=O` [indium-111 labelled] is reported as 0.08 ± 0.01 %ID/g (female athymic nude mice, brain; intravenous, 3 µCi, 24 h, U-87 MG glioma xenograft).
`C[C@H](NC(=O)[C@H](CCC(N)=O)NC(=O)[C@H](CCCCN)NC(=O)[C@H](C)NC(=O)[C@@H]1CCCN1C(=O)[C@H](C)NC(=O)[C@H](CCCCN)NC(=O)[C@H](CCC(N)=O)NC(=O)[C@H](C)NC(=O)[C@H](CCCCN)NC(=O)[C@H](CCC(N)=O)NC(=O)[C@@H]1CCCN1C(=O)[C@H](CCC(N)=O)NC(=O)[C@H](CCCCN)NC(=O)[C@H](C)NC(=O)[C@H](CCC(N)=O)NC(=O)[C@H](CCCCN)NC(=O)[C@H](C)NC(=O)[C@@H]1CCCN1C(=O)[C@H](C)NC(=O)[C@H](CCCCN)NC(=O)[C@H](CCC(N)=O)NC(=O)[C@H](C)NC(=O)[C@H](CCCCN)NC(=O)[C@H](CO)NC(=O)[C@H](Cc1ccc(O)cc1)NC(=O)CNC(=O)CNC(=O)CN)C(=O)N[C@@H](CCCCN)C(=O)N[C@@H](CCC(N)=O)C(=O)O` has a ka1 of 120000 M⁻¹ s⁻¹ (binding, SPR two-state model; rVλ6Wil fibrils; 300 nM, pH 7.4).
